# Assay results gathered from unrelated publications.
# A part holds a random share of what one study measured.

# Block 1
# Target: Histone acetyltransferase KAT6A, winged helix 1, GST fusion (KAT6A, Homo sapiens, UniProt Q92794, residues 1-85)
# Technique: protein binding microarray
# Form: double-stranded DNA, one strand shown
# Medium: in vitro
# Tested at: not given
# Setting: 8-mer, flanks averaged, mean of 2 arrays, mostly near background
# Baseline: not given
# Reading: higher = stronger binding
# Target sequence (chain): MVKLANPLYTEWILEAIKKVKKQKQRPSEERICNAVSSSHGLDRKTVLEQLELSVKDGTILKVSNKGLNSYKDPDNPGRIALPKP
Sequence,E-score
CGATCGCG,0.368
CGTATAGA,-0.0965
AGGCAAAT,-0.266
AGCTGCTA,-0.268
TACTTCCA,-0.193
CTCCATGA,-0.184
CTTCAGGA,-0.109
CTATAACC,-0.168
AGCAACGG,0.183
CTTGGGTC,-0.201
CGAATCGC,0.207
GATACTGC,0.0611
GGACCCCA,-0.159
CCGTCTCC,0.29
AAGCGTGA,0.102
AAGTCGGA,-0.0305
CCAAGAAC,-0.189
CCTGCTAA,-0.198
AGAGTGAC,-0.123
GATCCAAA,-0.209
CACTTCAA,-0.184
TAACGAGA,-0.0932

# Block 2
# Target: Myc proto-oncogene protein, bHLH-zipper, MAX partner unstated (MYC, Homo sapiens, UniProt P01106, residues 368-449)
# Chain of UniProt P01106 (368-449, looked up): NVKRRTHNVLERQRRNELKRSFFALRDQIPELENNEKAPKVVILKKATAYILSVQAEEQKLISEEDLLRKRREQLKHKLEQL
# Technique: protein-binding microarray
# Form: double-stranded DNA, one strand shown
# Medium: in vitro
# Tested at: not given
# Setting: k-mer, scored over probes, only values ≥0.25
# Reading: higher = stronger binding
Sequence,E-score
ACGTGTAT,0.423
AACCACGT,0.453
CATGTAGG,0.253
ACGCGAGC,0.261
AACTCATG,0.281
CCGTGTGC,0.312
AACATGAG,0.33
ATGCCGCC,0.274
CATGTTCA,0.344
ATCGTGGA,0.264
GGCCACGA,0.353
CTCATGGC,0.402
TAGCACGA,0.299
CAGCACGA,0.311
ACCCACAC,0.257
AGCATGTC,0.362
GTGGCCAA,0.286
CGTGTATC,0.326
CCACCCCC,0.28
AAGCACGC,0.436
GGTGGGTA,0.293
ACGCGTCG,0.308
CATGCCCG,0.344
CGTGGGTC,0.306
ATGCGGTA,0.335

# Block 3
# Target: Sal-like protein 4, full length isoform A (SALL4, Homo sapiens, UniProt Q9UJQ4, residues 1-1053)
# Chain of UniProt Q9UJQ4 (whole entry, looked up): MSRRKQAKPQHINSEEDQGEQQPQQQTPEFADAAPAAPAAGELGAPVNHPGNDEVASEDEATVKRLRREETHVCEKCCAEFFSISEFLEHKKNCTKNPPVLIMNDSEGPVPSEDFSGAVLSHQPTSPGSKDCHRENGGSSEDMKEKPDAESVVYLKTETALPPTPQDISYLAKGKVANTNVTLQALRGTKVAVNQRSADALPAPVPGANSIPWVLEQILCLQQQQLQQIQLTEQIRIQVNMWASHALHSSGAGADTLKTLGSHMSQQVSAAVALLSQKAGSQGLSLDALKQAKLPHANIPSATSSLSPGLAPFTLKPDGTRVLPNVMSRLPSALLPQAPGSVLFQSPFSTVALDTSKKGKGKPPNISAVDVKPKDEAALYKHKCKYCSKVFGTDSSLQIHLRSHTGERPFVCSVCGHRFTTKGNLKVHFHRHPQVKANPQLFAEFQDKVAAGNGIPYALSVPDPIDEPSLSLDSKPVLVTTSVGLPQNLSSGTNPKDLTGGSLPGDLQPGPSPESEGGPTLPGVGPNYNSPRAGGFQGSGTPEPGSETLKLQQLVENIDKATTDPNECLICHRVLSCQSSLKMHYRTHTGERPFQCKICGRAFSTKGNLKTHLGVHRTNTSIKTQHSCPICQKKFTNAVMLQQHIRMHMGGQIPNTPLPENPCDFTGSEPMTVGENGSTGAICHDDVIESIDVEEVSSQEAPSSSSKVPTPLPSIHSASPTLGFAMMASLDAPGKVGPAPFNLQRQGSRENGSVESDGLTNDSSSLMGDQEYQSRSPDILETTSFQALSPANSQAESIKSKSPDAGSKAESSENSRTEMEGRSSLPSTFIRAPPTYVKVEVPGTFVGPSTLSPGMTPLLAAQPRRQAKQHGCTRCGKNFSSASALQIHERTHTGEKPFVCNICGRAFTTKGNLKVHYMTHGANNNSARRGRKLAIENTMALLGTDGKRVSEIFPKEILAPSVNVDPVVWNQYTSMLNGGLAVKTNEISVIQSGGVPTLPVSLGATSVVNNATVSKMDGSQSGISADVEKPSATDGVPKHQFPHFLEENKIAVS
# Technique: universal PBM
# Form: double-stranded DNA, one strand shown
# Medium: in vitro
# Tested at: 600 nM
# Setting: 8-mer, flanks averaged, mean of replicates
# Reading: higher = stronger binding
Sequence,E-score
CCGCCGAA,-0.253
CACTCGGA,-0.0126
ACATAGCT,0.0661
ACAGATGG,-0.0846
TAGCCGAA,-0.103
GTATTTCA,0.276
AACGACAG,0.0303
GTTCAGAA,0.0829
ACGACAGG,-0.119
AATCAATC,0.174
AACCTCTT,0.174
ATGAACAT,0.242
CCGTACAG,-0.101
AATCCTCG,-0.178
AGACGGAG,-0.115
AGTGTTGC,0.175
CGTACACA,0.00342
GAAACTAA,0.0547
CTGTCACA,0.00634
ACAGCCGC,-0.32

# Block 4
# Target: Centromere-binding protein 1, full length, His-tagged (CBF1, Saccharomyces cerevisiae, UniProt P17106, residues 1-351)
# Chain of UniProt P17106 (whole entry, looked up): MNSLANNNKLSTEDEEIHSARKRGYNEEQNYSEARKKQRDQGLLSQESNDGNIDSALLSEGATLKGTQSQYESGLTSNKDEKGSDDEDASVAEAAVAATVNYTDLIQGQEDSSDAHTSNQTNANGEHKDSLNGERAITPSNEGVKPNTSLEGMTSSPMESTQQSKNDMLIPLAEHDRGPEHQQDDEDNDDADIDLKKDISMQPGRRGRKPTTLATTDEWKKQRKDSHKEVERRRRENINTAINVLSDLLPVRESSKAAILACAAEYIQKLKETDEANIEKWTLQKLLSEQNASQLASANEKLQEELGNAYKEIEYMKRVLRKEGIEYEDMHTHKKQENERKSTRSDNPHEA
# Technique: competition protein-binding microarray
# Form: double-stranded DNA, one strand shown
# Medium: in vitro
# Tested at: 2 µM
# Setting: whole 60-bp probe, lowest competitor level
# Together with: Pho4 competitor, 0.05 µM
# Reading: higher = stronger binding
# Shared flanks, not repeated: … GTCTTGATTCGCTTGACGCTGCTG
Sequence,fluorescence intensity [a.u.]
GCCCTGGACGGAAAGCACGTGCTAAAGTGTTGCCCG,1780
GAGCTTGTGGGTCAACACGTTTCTTGGGATGAGACA,110
TGCAGCGGGTGCGGCCACGTTTTAAAGTGATTCTGC,102
CTGGTGTCTAATATGCACATGCCTGGTACTACCAGT,99.4
AAATTACTAAGTTGGCGTGTGGGTGACGCCGTATGA,75
AGGAAATCAAGACTGAACGTGTTGAAGATCAAAAGG,87.4
CACAGATGAGTCAGCTTCGTGATGGCCTGTTTCGGT,70.4
CGTCCTAGTGATTGTGATGTGGGTGCCATGAGGAAG,91.5
ATCCTCTAACGCTTCTACCACCGTCTCTTCTACGAT,57.7
CCGTCCTTTTCACTTCACGTTCGCAGGGCTTTCCTG,78.5
CATACCCAACCTTGTAGGGTGGGTGAAGATATTTGT,61
GCCCGACGATTTGCCCACATGTCAATCGGATTGGGC,80.1
TGCGCAACAACTTGTCACTTGACTTTATGTCTAGAA,139
CTTTCCCGATCTTGGGCGGTGGGTGTAGCACATTTG,64.4
TTTGTTTACTAAAAACACATGTGTGTATCTTGACTG,220
CGTCCTAGTGATTGGCGAGTGGGTGCCATGAGGAAG,85.9
AGAAGTTTACCAAAACACGTGCAAAGATCCTACGAT,1770
CGGATCGCATTATTGCACGATATCGCCGAATCTTTA,66.7
GTCTTGTCTCATTGCTGTGTGGGTGTCCCCACTTCA,90.6
TTAATACTGCCTGACGGCGTGCCAGAACAAGGAGCA,85.2
GAAATGGCAATGAAAGCCGTGCAATCAGAAACAAAC,77.6
TACGTCCAGCCAAATCACATGATACTGGCTTGAACA,783
CTACTACAGCGTAGGCACGGGTGCATACATCTTCAA,83.3
CAGCTTCAACCAAATAACGTGGGTATTCTGGAACGA,101
AAACAGTGCTCAATAATCGTGACGGGAGGGTCATTA,93.2

# Block 5
# Target: RNA binding protein fox-1 homolog 2, RRM domain, GST-SBP tag (RBFOX2, Homo sapiens, UniProt O43251-10, residues 100-194)
# Technique: RNA Bind-n-Seq
# Form: RNA
# Medium: in vitro
# Tested at: 365 nM
# Setting: natural RNA segment, single round, ends assumed
# Baseline: no-protein control
# Reading: higher = stronger binding
# Shared flanks, not repeated: GGGAGUUCUACAGUCCGACGAUC … UGGAAUUCUCGGGUGCCAA
# Construct (chain): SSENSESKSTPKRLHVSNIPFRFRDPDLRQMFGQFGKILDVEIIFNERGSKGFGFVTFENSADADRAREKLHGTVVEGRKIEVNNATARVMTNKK
Sequence,RBNS enrichment (R)
CUGGUGACUAUGGGUUCCUCUUGUUUGUAGGGAACGGUGGCUCCAGGUGGAGGCAUCAAUCUGUUGGGUUCUGGUUCCCGGCUGCCUUUGGUUUUGAAAGUCUCUUCUCU,0.569
UUGGGGAAUCUGAGCUUUUCCAAGGGUAAGGGGCCCAGGGUAUGCAGGCCUUCAGUGACAUCAGGUCGUUGUCAUCCUUUCCCUCCCUGACCUGUCACGAGCCUCUGCAG,0.499
GCCCUGCUGUGUGAUGCUCAUCGCUUCCCUUCGUGCUGGAGCAGUCCCCCAGGUGUCCAUCUCCUAUCUUUUUGUUCCAAUCUUCUGUGAGUUCCAGCUAGCAGGCUUUA,0.458
UUCUCGUGUUCUUUUGUUUCCGAGUGCUUAUAAUGCAUGUAGACCUUGUUCUUCGUGAUCCUGCUAUGUGAUUGGUCACAGAGUUUUAGAUUCAGGAAAGAAUGUUACCA,1.37
CUGCCUCGUAAGCGUUUCCUCCCUGAAUUGAAGUACAUAGGCUAAUAUAUUAUUUUGUAGUAUCUCAGACUUUGCAUAAAUACUAUUAUUUUUGUAUGGAAUUUUUUACA,0.734
AGAGUUUACCAACAAAUAUUGACUGCAGUGAUUAACCAAGACAUUUUUGUUAACUAAAAAGUGAAAUAUGGGAUGGAUUCUAGAAAUGGGGUAUCUCUGUCCAUACUUCU,0.341
CCAGAGCCAUCCCUGAAGCCAGGUGACUGUCCCAAGGUCUUCCCUCCCGGGAGCCCAACCUUUCGAGUGCAGCCAAACCUUACUGCUUUUACAACAUUGCACAGCUGUGU,0.294
ACGUAAACACUGGUGACAUAAACCAUUCAUUGCUACGUUGCUUAUUGUGUUUUUAUGCUGUUUUAUACUUUUUUAUGAGUUAUGAUAGCAGCAAUUAAGUUGUUUGUAUU,0.263
UAAGCCAAGCCUGCCCAGCUAAUGAGCUGUUUGACGUUGAACUUGAAAGCUUUCCCCUCCCUCUAAGAUGAUGUAGGUACUUGAGGUUUGGGUUAAAGGGGCUGGGUGGG,0.57
UUUCUCUUAAGCAUUUCUCCAUGCCGUGGCCGUGAGUAGUUCUUCAAAAGCAUGUUUUUGAUAAUUGGGAGUCAAGUGGUUGUAAAUUUAUAAGUUAUGCAGUUGUUUCC,25.6
UACGUCCUGCCUACAACUCCCGAGUGGCUUUUGGUAGUAACUACCCUGUGUACCCAUUAACAAAGCCAACUAUGUCCUCUCUCCAGAAUGCCCACCCCUACUGUGGCCAC,0.296
GCAUUGUGAGUUGGGGUGAUGCCUGUGGUGCCCCCAACAGGCCUGGAGUAUACACUCUGACUUCUACCUAUGCUUCCUGGAUCCACCACCAUGUGGCAGAGCUCCAGCCU,0.278

# Excerpt of the above (block 2):
Sequence,E-score
AAGCACGC,0.436
AGCATGTC,0.362
GGCCACGA,0.353
CATGTAGG,0.253
ATGCCGCC,0.274
ACGCGTCG,0.308
ATGCGGTA,0.335
CATGTTCA,0.344
CGTGTATC,0.326
CGTGGGTC,0.306
